{"data": "Measured values gathered from unrelated publications", "rep main protease": "Replicase polyprotein 1ab, main protease (rep, Severe acute respiratory syndrome coronavirus 2, UniProt P0DTD1)", "Spike glycoprotein": "Spike glycoprotein (Severe acute respiratory syndrome coronavirus 2, UniProt P0DTC2)", "note": "Each line is one published result; not all experiments were run side by side.", "UniProt Q7BQ98, sequence (whole entry, looked up)": "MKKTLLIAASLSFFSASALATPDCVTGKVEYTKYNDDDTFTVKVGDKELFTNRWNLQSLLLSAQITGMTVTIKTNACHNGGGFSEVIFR", "UniProt P01556, sequence (whole entry, looked up)": "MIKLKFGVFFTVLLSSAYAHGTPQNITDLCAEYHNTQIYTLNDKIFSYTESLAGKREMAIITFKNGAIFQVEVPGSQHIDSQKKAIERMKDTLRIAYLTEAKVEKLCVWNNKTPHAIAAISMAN"}
{"SMILES": "CCC(C)n1ncn(-c2ccc(N3CCN(c4ccc(OCC5COC(Cn6cncn6)(c6ccc(Cl)cc6Cl)O5)cc4)CC3)cc2)c1=O (stereo not drawn)", "tested on": "Spike glycoprotein, HR1/HR2 domains (Severe acute respiratory syndrome coronavirus 2, UniProt P0DTC2)", "assay": "HR1-HR2 interaction, yeast two-hybrid", "test system": "AH109", "conditions": "48 h", "measurement": "MIC", "result": "3.12 µg/mL"}
{"SMILES": "[H]/N=C(/N)c1ccc(NCc2nc3cc(C(=O)N(CCC(=O)O)c4ccccn4)ccc3n2C)cc1", "tested on": "rep main protease", "assay": "reporter gene (Gaussia luciferase), inhibitor", "conditions": "20 µM", "measurement": "inhibition", "result": "0.255%"}
{"SMILES": "Cc1cc(C(=O)N2[C@@H]3CCC[C@H]2CC(NC(=O)c2cc[nH]c(=O)c2)C3)cc(=O)[nH]1 (stereo partly drawn)", "tested on": "rep main protease", "assay": "enzyme activity, inhibitor", "conditions": "5 µM, run 2", "measurement": "inhibition", "result": "13.5%"}
{"SMILES": "C[C@@H]1[C@H](O)[C@@H](C)/C=C/C=C/CC/C=C/C=C/C=C/C=C/C(O[C@H]2O[C@H](C)[C@@H](O)[C@H](N)[C@@H]2O)CC2O[C@](O)(CC(O)C(O)CCC(O)CC(O)CC(O)CC(=O)O[C@H]1C)CC(O)C2C(=O)O (stereo partly drawn)", "tested on": "Spike glycoprotein", "assay": "binding, biolayer interferometry", "measurement": "koff", "result": "0.00611 s⁻¹"}
{"SMILES": "[N-]=[N+]=N[C@@H]1O[C@H](CO)[C@H](O[C@H]2O[C@H](CO)[C@H](O)[C@H](O)[C@H]2O)[C@H](O)[C@H]1O", "tested on": "Shiga toxin subunit B (stxB, Shigella dysenteriae, UniProt Q7BQ98)", "test system": "Escherichia coli", "measurement": "Hill slope", "result": -1.48}
{"SMILES": "CNC(=O)[C@@H](NC(=O)[C@H](CC(C)C)[C@H](O)C(=O)NO)C(C)(C)C", "tested on": "C2C12", "conditions": "10 µM, with: KL venom", "how to read": "reference: venom alone", "measurement": "viability difference", "result": "11.3%"}
{"SMILES": "Cn1cnc(Cn2c(=O)[nH]/c(=N\\c3cc4cn(C)nc4cc3Cl)n(Cc3cc(F)c(F)cc3F)c2=O)n1", "test system": "human, mild renal impairment", "conditions": "oral, 375 mg", "measurement": "dry mouth TEAE, Severe severity", "result": "0%"}
{"SMILES": "Nc1ncnc2c([C@@H]3N[C@H](CO)[C@@H](O)[C@H]3O)c[nH]c12", "tested on": "Marburg marburgvirus", "assay": "viral glycoprotein surface expression", "test system": "HeLa, Musoke", "conditions": "25 µM", "measurement": "inhibition", "result": "95.3%"}
{"SMILES": "C[C@H](CCC(=O)NCCS(=O)(=O)[O-])[C@H]1CC[C@H]2[C@@H]3[C@@H](O)C[C@@H]4C[C@H](O)CC[C@]4(C)[C@H]3CC[C@]12C.[Na+]", "tested on": "rep main protease", "assay": "reporter gene (mKate2), inhibitor", "conditions": "20 µM", "measurement": "inhibition", "result": "-0.556%"}
{"SMILES": "CC[C@H](C)[C@H](NC(=O)[C@H](CC(C)C)NC(=O)[C@H](Cc1c[nH]c2ccccc12)NC(=O)[C@H](CCC(N)=O)NC(=O)[C@@H](NC(=O)[C@H](Cc1ccccc1)NC(=O)[C@H](C)NC(=O)[C@H](CCCCNC(=O)COCCOCCNC(=O)COCCOCCNC(=O)CC[C@H](NC(=O)CCCCCCCCCCCCCCCCCCC(=O)O)C(=O)O)NC(=O)[C@H](CCC(N)=O)NC(=O)[C@H](C)NC(=O)[C@@H](NC(=O)[C@H](CCCCN)NC(=O)[C@H](CC(=O)O)NC(=O)[C@H](CC(C)C)NC(=O)C(C)(C)NC(=O)[C@@H](NC(=O)[C@H](CO)NC(=O)[C@H](Cc1ccc(O)cc1)NC(=O)[C@H](CC(=O)O)NC(=O)[C@H](CO)NC(=O)[C@@H](NC(=O)[C@H](Cc1ccccc1)NC(=O)[C@@H](NC(=O)CNC(=O)[C@H](CCC(=O)O)NC(=O)C(C)(C)NC(=O)[C@@H](N)Cc1ccc(O)cc1)[C@@H](C)O)[C@@H](C)O)[C@@H](C)CC)[C@@H](C)CC)C(C)C)C(=O)N[C@@H](C)C(=O)NCC(=O)NCC(=O)N1CCC[C@H]1C(=O)N[C@@H](CO)C(=O)N[C@@H](CO)C(=O)NCC(=O)N[C@@H](C)C(=O)N1CCC[C@H]1C(=O)N1CCC[C@H]1C(=O)N1CCC[C@H]1C(=O)N[C@@H](CO)C(N)=O", "test system": "healthy human", "conditions": "8.0 mg, single ascending dose", "measurement": "severe hypoglycaemia", "result": "0%"}
{"SMILES": "O=C(O[C@@H]1Cc2c(O)cc(O)cc2O[C@@H]1c1cc(O)c(O)c(O)c1)c1cc(O)c(O)c(O)c1", "tested on": "Spike glycoprotein", "assay": "binding", "measurement": "kon", "result": "1710 M⁻¹ s⁻¹"}
{"SMILES": "O=C1CC[C@@H](CCC(=O)N2CCCC[C@@H](C3CN(C(=O)c4cnc5n[nH]nc5c4)C3)C2)CN1", "tested on": "rep main protease", "assay": "enzyme activity, inhibitor", "conditions": "5 µM", "measurement": "inhibition", "result": "11.5%"}
{"SMILES": "C(#Cc1nc2ncccc2nc1OCCN1CCCC1)c1ccccc1", "tested on": "rep main protease", "assay": "viral replication, Gluc reporter", "test system": "SARS-CoV-2", "conditions": "20 µM", "measurement": "inhibition", "result": "-6.07%"}
{"SMILES": "O=C[C@H](O)[C@@H](O)[C@@H](O)[C@H](O)CO", "tested on": "ctxB (Vibrio cholerae, UniProt P01556)", "assay": "binding", "measurement": "log IC50", "result": -0.953}
{"SMILES": "O=C(NC[C@@H]1Cc2ccccc2CN1C(=O)[C@@H]1CCCS(=O)(=O)C1)c1cn[nH]c(=O)c1", "tested on": "rep main protease", "assay": "enzyme activity, inhibitor", "conditions": "5 µM, run 1", "measurement": "inhibition", "result": "13.1%"}
{"SMILES": "CCCN1CCN(c2ccc(C(=O)NC3(C(=O)NCC#N)CCCCC3)cc2)CC1", "tested on": "rep main protease", "assay": "reporter gene (Gaussia luciferase), inhibitor", "conditions": "20 µM", "measurement": "inhibition", "result": "2.26%"}
{"SMILES": "O=C(/C=C/c1ccc(O)c(O)c1)O[C@H]1[C@H](O)C[C@](O)(C(=O)O)C[C@H]1OC(=O)/C=C/c1ccc(O)c(O)c1", "tested on": "Spike glycoprotein", "assay": "binding, biolayer interferometry", "measurement": "koff", "result": "0.00393 s⁻¹"}
{"SMILES": "O=C(c1ccc2cccnc2c1)N1CC[C@@H]([C@@H]2CCCN(C(=O)c3cccn4cnnc34)C2)C1", "tested on": "rep main protease", "assay": "enzyme activity, inhibitor", "conditions": "5 µM, mean of runs", "measurement": "inhibition", "result": "11.1%"}
{"note": "For quick reference, copied from above:"}
{"SMILES": "[H]/N=C(/N)c1ccc(NCc2nc3cc(C(=O)N(CCC(=O)O)c4ccccn4)ccc3n2C)cc1", "tested on": "rep main protease", "assay": "reporter gene (Gaussia luciferase), inhibitor", "conditions": "20 µM", "measurement": "inhibition", "result": "0.255%"}
{"SMILES": "Cc1cc(C(=O)N2[C@@H]3CCC[C@H]2CC(NC(=O)c2cc[nH]c(=O)c2)C3)cc(=O)[nH]1 (stereo partly drawn)", "tested on": "rep main protease", "assay": "enzyme activity, inhibitor", "conditions": "5 µM, run 2", "measurement": "inhibition", "result": "13.5%"}
{"SMILES": "C[C@@H]1[C@H](O)[C@@H](C)/C=C/C=C/CC/C=C/C=C/C=C/C=C/C(O[C@H]2O[C@H](C)[C@@H](O)[C@H](N)[C@@H]2O)CC2O[C@](O)(CC(O)C(O)CCC(O)CC(O)CC(O)CC(=O)O[C@H]1C)CC(O)C2C(=O)O (stereo partly drawn)", "tested on": "Spike glycoprotein", "assay": "binding, biolayer interferometry", "measurement": "koff", "result": "0.00611 s⁻¹"}
